Measurements collected from several papers.
Protocols differ between the studies behind these lines. ± gives the spread as reported.

O=C([O-])CN1CCN(CC(=O)[O-])CCN(CC(=O)[O-])CCN(CC(=O)[O-])CC1.[64Cu+2]  tissue uptake (healthy athymic nude mice, stomach; intravenous, 15 min): 1.03 %ID/g
CN(C)c1ccc(-c2nc3ccc(OCCCCCN4CCN5CCN(CC4)CC(=O)[O][Al]([18F])[O]C(=O)C5)cc3s2)cc1  tissue uptake (ICR mouse, heart; intravenous, 2 min): 8.65 ± 1.34 %ID/g
CN1C(=O)[C@@H](Cc2ccc(O)c(I)c2)NC(=O)CNC(=O)[C@H](Cc2ccc3ccccc3c2)NC(=O)[C@H](CCCNC(=N)N)NC(=O)[C@H]1CCCNC(=O)c1ccc(CNC(=O)CN2CCN(CC(=O)O)CCN(CC(=O)O)CCN(CC(=O)O)CC2)cc1 [lutetium-177 labelled]  tissue uptake (refers to: 177Lu radioactivity; female CB-17 SCID mice, Daudi xenograft, adrenals; intravenous, 0.16 nmol per mouse, 48 h): 0.56 ± 0.08 %ID/g
CCCC[C@H](NC(=O)CNC(=O)CNC(=O)CN1CCN(CC(=O)O)CCN(CC(=O)O)CCN(CC(=O)O)CC1)C(=O)N[C@H]1CC(=O)NCCCC[C@@H](C(N)=O)NC(=O)[C@H](Cc2c[nH]c3ccccc23)NC(=O)[C@H](CCCNC(=N)N)NC(=O)[C@@H](Cc2ccccc2)NC(=O)[C@H](Cc2c[nH]cn2)NC1=O [lead-203 labelled]  tissue uptake (C57 mouse, stomach; intravenous, 0.056 MBq, 4 h): 0.53 ± 0.2 %ID/g
CCCC[C@H](NC(=O)CNC(=O)CNC(=O)CN1CCN(CC(=O)O)CCN(CC(=O)O)CC1)C(=O)N[C@H]1CC(=O)NCCCC[C@@H](C(N)=O)NC(=O)[C@H](Cc2c[nH]c3ccccc23)NC(=O)[C@H](CCCNC(=N)N)NC(=O)[C@@H](Cc2ccccc2)NC(=O)[C@H](Cc2c[nH]cn2)NC1=O [copper-64 labelled]  tissue uptake (female C57 mouse, B16/F1 melanoma, tumor; intravenous, 0.037 MBq, 0.5 h): 12.5 ± 0.44 %ID/g
OCc1cn(Cc2ccc(-c3noc(-c4ccc(OCC[18F])c(C(F)(F)F)c4)n3)cc2)nn1  tissue uptake (female Lewis rat, fat; intravenous, 120 min): 0.57 ± 0.07 %ID/g
CCCC[C@@H]1NC(=O)[C@@H](NC(=O)[C@H](CCC(=O)O)NC(=O)CNC(=O)CN2CCN(CC(=O)O)CCN(CC(=O)O)CCN(CC(=O)O)CC2)CCCCNC(=O)C[C@@H](C(N)=O)NC(=O)[C@H](C(C)C)NC(=O)[C@@H]2CCCN2C(=O)[C@H](CCCNC(=N)N)NC(=O)CNC(=O)[C@H](Cc2c[nH]c3ccccc23)NC(=O)[C@H](CCCNC(=N)N)NC(=O)[C@@H](Cc2ccccc2)NC(=O)[C@H](Cc2c[nH]cn2)NC(=O)[C@H](CCC(=O)O)NC1=O [gallium-67 labelled]  tissue uptake (C57 mice, B16/F10 lung metastases, pancreas; intravenous, 0.037 MBq/mouse, 2 h): 0.16 ± 0.09 %ID/g
O=C([O-])CN1CCN(CC(=O)[O-])CCN(CC(=O)NCCc2ccc3c(c2)C2C=CCC2C(c2cc4c(cc2Br)OCO4)N3)CCN(CC(=O)[O-])CC1.[111In+3] (centres unmarked)  tissue uptake (mice with Hec50 tumour xenograft, Hec50 tumour; 0.5 h): 3.81 ± 0.18 %ID/g
